Measurements pooled from the literature.
Protocols differ between the studies behind these lines. ± marks the error that the study gave. In brackets after ≈: the same amount, converted by molar mass.

The plasma triglycerides of `CC[C@H]1[C@@H](O)[C@@H]2[C@H](CC[C@]3(C)[C@@H]([C@H](C)CCOS(=O)(=O)[O-])CC[C@@H]23)[C@@]2(C)CC[C@@H](O)C[C@@H]12.[Na+]` is reported as 0.6 ± 0.1 mmol/L (ob/ob NASH mice, plasma; oral, 10 mg/kg once daily, 8 wk).
`[64Cu+2].c1cnc(CNCc2ccc(CN3CCCN4CCNCCCN(CC4)CC3)cc2)nc1` gave a tissue uptake of 79.1 ± 4.85 %ID/g (CXCR4; NOD/SCID mouse, U87 and U87-stb-CXCR4 xenografts, liver; iv, 240 min, ex vivo).
For `CC(C)C[C@@H]1NC(=O)[C@H](CCCCN)NC(=O)CNC(=O)[C@H]2CCCN2C(=O)[C@H](CCCCN)NC(=O)[C@H](CC(C)C)NC(=O)[C@H](CCCCN)NC(=O)[C@H](CC(C)C)NC(=O)[C@H](CCCCN)NC(=O)C(N)CCC=CCCC(C(N)=O)NC(=O)[C@H](CCCCN)NC(=O)[C@H](CC(C)C)NC(=O)[C@H](CCCCN)NC1=O` (stereo partly drawn), “inner membrane permeabilization” read about 80% (Escherichia coli; SYTOX green uptake; ATCC 25922; 1× MIC, 1 h, pH 7, 37 °C; baseline: BTT1).
With `NS(=O)(=O)c1ccc(NC(=O)NN[C@@H]2O[C@H](CO)[C@@H](O)[C@H](O)[C@@H]2O)cc1` the hemolysis was 0% (rabbit erythrocytes; 8 µg/mL, 3 h; baseline: complete lysis).
`CN(C)c1cc(CNC(C)(C)C)c(O)c2c1C[C@H]1C[C@H]3[C@H](N(C)C)C(O)=C(C(N)=O)C(=O)[C@@]3(O)C(O)=C1C2=O` gave an MIC of 8 µg/mL (≈ 14.7 µM) (Enterococcus faecalis; microbial growth, broth dilution).
`CC/C(=C\c1ccc(OCC(=O)NC(C(=O)N2CCOCC2)c2ccccc2)cc1)[N+](=O)[O-]` (stereo not drawn) has an inhibition of 78.1% (Leishmania donovani; parasite growth, MTT; 100 µM, 48 h, promastigote).
`CC(C)=CCc1cc2c(cc1O)OCc1c-2oc2c(CC=C(C)C)c(O)ccc12` — result for antibacterial activity: “inactive” (Enterococcus faecalis; ATCC 29212; concentration not given).
The MBC of `Oc1c(Br)cc(Br)c2nc3c(C(F)(F)F)cc(C(F)(F)F)cc3nc12` is reported as 0.1 µM (≈ 0.049 µg/mL) (Enterococcus; Calgary Biofilm Device; VRE 700221; biofilm).
The tissue uptake of `CCCC[C@H](NC(=O)COCCOCCNC(=O)CN1CCN(CC(=O)O)CCN(CC(=O)O)CC1)C(=O)N[C@H]1CC(=O)NCCCC[C@@H](C(N)=O)NC(=O)[C@H](Cc2c[nH]c3ccccc23)NC(=O)[C@H](CCCNC(=N)N)NC(=O)[C@@H](Cc2ccccc2)NC(=O)[C@H](Cc2c[nH]cn2)NC1=O` [copper-64 labelled] is reported as 0.19 ± 0.01 %ID/g (C57 mice, heart; intravenous, 0.37 MBq, 2 h).
`O=Cc1c(O)ccc2ccccc12` — result for “log2 fold change”: -2.89 (HUVEC; RNA sequencing, refers to: LXN; 75 µM, 24 h; baseline: DMSO).
For `Cc1ccc(NC(=O)c2[nH]c3cc(C)sc3c2CN(C)C)cc1`, the IC50 was over 10 µM (Giardia duodenalis; parasite growth; 48 h).
With `CCOC(=O)C(NC(=O)CN1C(=O)N/C(=C\c2ccc3c(c2)OCO3)C1=O)C(C)C` (stereo not drawn) the IC50 was over 100 µM (Leishmania donovani; parasite growth, resazurin; promastigote).
`O=c1c(-c2nc3ccccc3s2)cc2c(n1NS(=O)(=O)c1ccc(Cl)cc1)CCCCCC2` gave a selectivity index of 2.79 (hepatitis C virus; Huh7.5, genotype 4 ED-43 replicon; baseline: CC50 over IC50).
`CCOC(=O)C(NC(=O)CN1C(=O)/C(=C/c2ccc([N+](=O)[O-])cc2)SC1=S)C(C)C` (stereo not drawn) has an IC50 of over 10 µM (Leishmania donovani; parasite growth; 72 h, intracellular, amastigote).
Under “inhibition zone diameter”, `CC(=O)[O-].O.O.O.O.[Mn+2].[O-]c1ccc(Br)cc1C=NCCN1CCOCC1` is recorded as 12 mm (Mucor indicus; 20 µL of 100 µM per disc).

For quick reference, copied from above:
`[64Cu+2].c1cnc(CNCc2ccc(CN3CCCN4CCNCCCN(CC4)CC3)cc2)nc1` gave a tissue uptake of 79.1 ± 4.85 %ID/g (CXCR4; NOD/SCID mouse, U87 and U87-stb-CXCR4 xenografts, liver; iv, 240 min, ex vivo).
`O=Cc1c(O)ccc2ccccc12` — result for “log2 fold change”: -2.89 (HUVEC; RNA sequencing, refers to: LXN; 75 µM, 24 h; baseline: DMSO).
